Published values collected from several papers.
Every numbered part comes from another study and shows a few of its results, in no order.

Set 1
Target: Sal-like protein 4, full length isoform B (SALL4, Homo sapiens, UniProt Q9UJQ4-2, residues 1-616)
Technique: universal PBM
Molecule type: double-stranded DNA, one strand shown
Medium: in vitro
Tested at: not given
Notes: 8-mer, flanks averaged, mean of replicates
Reading: higher = stronger binding
Measurement: E-score
CTGTGCGA: -0.0171
GATACACA: 0.164
CTGCGGAA: -0.172
TAGCGGCA: -0.199
ATCTTTGA: 0.167
ACGTAGAT: 0.107
ACGTCACA: 0.00452
CTCGCTGA: -0.173

Set 2
Target: RING finger protein unkempt homolog, zinc fingers 1-6, SBP tag (UNK, Homo sapiens, UniProt Q9C0B0, residues 30-357)
Sequence of UniProt Q9C0B0 (30-357, looked up): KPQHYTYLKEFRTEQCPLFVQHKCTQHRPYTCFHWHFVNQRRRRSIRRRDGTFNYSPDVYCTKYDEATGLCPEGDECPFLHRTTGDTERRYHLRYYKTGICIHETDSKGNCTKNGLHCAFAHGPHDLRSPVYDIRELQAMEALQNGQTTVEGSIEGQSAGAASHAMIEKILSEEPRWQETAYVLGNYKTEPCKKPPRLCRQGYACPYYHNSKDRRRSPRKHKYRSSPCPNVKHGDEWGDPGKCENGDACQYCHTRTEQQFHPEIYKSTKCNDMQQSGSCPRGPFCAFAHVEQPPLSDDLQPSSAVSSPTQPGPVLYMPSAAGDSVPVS
Technique: RNA Bind-n-Seq
Molecule type: RNA
Medium: in vitro
Tested at: 100 nM
Notes: RNA with constant flanks, vertebrate orthologous sites, ends assumed
Reference: input RNA pool
Reading: higher = stronger binding
Measurement: bound/input enrichment
Constant ends, left off below: GGGAGUUCUACAGUCCGACGAUC … CAACAGAGGAUUGAGCAUCA
GUGAGGGUCUCCUGACCGCUCGCUGUUAUGUCUGGUAUCUGUAAACACUCUUUUUGUUCUUAGUCUUUUUCUUGUAUAAUUGAUGUUCUUUAAAAUUGUUCAUGUAUAACAGGGCUUAUG: 1.5 ratio
UGGGUUACUCCUAUUAUUAUCAAGUAGCUGGAAUUGUGAAGGUCGGAGUAGUUAGAUCUUUAGCUUUUAUUCCUUAUUUUUUUGUAUUACUAUCCAUGUGUAUAAAUUAUUGAUCAUGUU: 3.14 ratio
UUAAAGUCAUUUUUUUCACGUUUCCUGUAAAUAAUGGAUAAUCAUUUUUAUUUUAUUUUUAAGUGCUGUUUUAACAAUGUGGAUAGACCAUAAAUGUACUUGCUGAAUUCAUUCAUUUUU: 0.237 ratio
AGGGACGCUUUGAUGUAAAAAUUGAAGUUAAGAGCUGAUCACAAGCACAAAUCUUUCCCACUAGCCAUUUAAUAAGUUAAAAAAGAUACAAAACAAAACCUACUAGUCUUGAACAAACUG: 1.65 ratio
CCCUGUGUUGGCCCUGGGGAGCUGCUGGGUGCUUAGCAUUUUUUGAUUUUGACAUUGACAUAAUAGAUAGGCUUGUGGGUUGUUUUGUUUUUGUUUUUUAAUUUAAAAAUAUUAAGACUU: 1.07 ratio
UGUCUGCCUCAUUCUCAAAUUUACACAGUAGACCAUUUGUCAUCCAUGCUGUCCCACAAAUAGUUUUUUUGUUUACGAUUUAUGACAGGUUUAUGUUACUUCUAUUUGAAUUUCUAUAUU: 1.53 ratio
GAACCUAAACUUAUAGCAAAAGAGCCAAGCAGUAGCAGUUUUUGUAAAUGUAAAAAUAAUUAGAUCCAGACUUUGUUUCCUUCAAUUUUAAAAAUAAAAAAUACCUCAGUGCUAUGUUUU: 1.03 ratio
UUUUGUUUGUUUUGCACAUGACAGUGUGUGUAUUGAUCUGAGGAAGGAGGAGGGUUGCUGGCACAGUUGCCUUCCAGUGCACCCCAGCCUCACCACCCCAGCUGGUAUCUUUGCCACGUU: 0.214 ratio

Set 3
Cell line: HEK-293T
Observed: pseudovirus infection
Technique: FDA-approved drug library screen
Organism: VSV pseudotyped with SARS-CoV-2 spike
Tested at: 10 µM
Time: 16 h
Reference: vehicle-treated
Measurement: GFP-positive cells
CC1=C(C(=O)O)N2C(=O)[C@@H](NC(=O)[C@H](N)c3ccc(O)cc3)[C@H]2SC1: 88.7%
CNC(=O)c1ccccc1Sc1ccc2c(/C=C/c3ccccn3)n[nH]c2c1: 67.7%
CC(C)(Oc1ccc(C(=O)c2ccc(Cl)cc2)cc1)C(=O)O: 102%
Cc1cccc(Nc2ccccc2C(=O)O)c1C: 60.7%

Set 4
Target: Replicase polyprotein 1ab, main protease (rep, Severe acute respiratory syndrome coronavirus 2, UniProt P0DTD1)
Observed: enzyme activity
Mode: inhibitor
Notes: no DTT
Measurement: IC50
O=C(C=Cc1ccc(O)c2c1C(C(=O)OC(Cc1ccc(O)c(O)c1)C(=O)O)C(c1ccc(O)c(O)c1)O2)OC(Cc1ccc(O)c(O)c1)C(=O)O (centres unmarked): 3.4 µM
O=C1C2CC=CCC2C(=O)N1SC(Cl)(Cl)Cl (centres unmarked): 0.7 µM
CC[n+]1c(-c2ccccc2)c2cc(N)ccc2c2ccc(N)cc21: > 20 µM
NC[C@H](O)c1ccc(O)c(O)c1: > 20 µM
O=C(/C=C/c1ccc(O)c(O)c1)O[C@H](Cc1ccc(O)c(O)c1)C(=O)O: 10 µM

Set 5
Target: Replicase polyprotein 1ab, nsp13 helicase (rep, Severe acute respiratory syndrome coronavirus 2, UniProt P0DTD1)
Mode: inhibitor
Tested at: 20 µM
Measurement: inhibition
Oc1ccc(Cl)cc1Cc1cc(Cl)ccc1O: -1.19%
COc1cnc(-c2ccc(Cn3c(CC(C)(C)C(=O)O)c(SC(C)(C)C)c4cc(OC[C@@H]5Cc6ccccc6N5C(C)=O)ccc43)cc2)nc1: 9.53%
CCOC(=O)c1cncn1[C@H](C)c1ccccc1: 1.86%
Cc1ccc(OCCSc2ncccn2)c(Br)c1: 2.61%
Clc1ccc(CCCOCCCN2CCCCC2)cc1: 10.3%
O=C(O)c1ccccc1Nc1cc(Cl)ccc1C(=O)O: 3.06%
COc1ccc(-c2nc3cc(C4=NNC(=O)CC4C)ccc3[nH]2)cc1 (centres unmarked): -5.47%
N[C@@H](CCC(=O)N[C@@H](CS)C(=O)NCC(=O)O)C(=O)O: 4.66%
CN1CCCC(n2nc(Cc3ccc(Cl)cc3)c3ccccc3c2=O)CC1 (centres unmarked): 9.78%
COc1ccn2ncc(-c3nc4[nH]nc(NC(=O)c5ccc(F)cc5)c4cc3F)c2c1: 4.36%
CN1c2c(oc(=O)n(-c3ccccn3)c2=O)-c2ccccc2S1(=O)=O: 2.71%
CCCSc1ccc2[nH]c(NC(=O)OC)nc2c1: -0.32%
CCN(CC)C(=O)Nc1ccc(OCC(O)CNC(C)(C)C)c(C(C)=O)c1 (centres unmarked): 6.43%
Clc1cccc(Cl)c1NC1=NCCN1: -0.26%
C[N+](C)(CF)CCO: 5.56%
NC(=O)C1=CN([C@@H]2O[C@H](COP(=O)(O)OP(=O)(O)OC[C@H]3O[C@@H](n4cnc5c(N)ncnc54)[C@H](OP(=O)(O)O)[C@@H]3O)[C@@H](O)[C@H]2O)C=CC1: 3.74%
[O-][n+]1cccc(CO)c1: -6.28%
CC[C@]1(O)C[C@@H]2CN(CCc3c([nH]c4ccccc34)[C@@](C(=O)OC)(c3cc4c(cc3OC)N(C)[C@H]3[C@@](O)(C(N)=O)[C@H](O)[C@]5(CC)C=CCN6CC[C@]43[C@@H]65)C2)C1: 0.09%
C[N+]1(C)CCC(OC(=O)C(c2ccccc2)c2ccccc2)CC1: 7.27%
COc1ccc(NS(=O)(=O)c2ccc(/N=N/c3ccc(O)c(C(=O)O)c3)cc2)nn1: 8.25%
c1ccc(-c2[nH]ncc2-c2ccnc3ccccc23)nc1: 0.19%
CCNC(=O)[C@@H]1CCCN1C(=O)[C@H](CCCN=C(N)N)NC(=O)[C@H](CC(C)C)NC(=O)[C@@H](C)NC(=O)[C@H](Cc1ccc(O)cc1)NC(=O)[C@H](CO)NC(=O)[C@H](Cc1c[nH]c2ccccc12)NC(=O)[C@H](Cc1cnc[nH]1)NC(=O)[C@@H]1CCC(=O)N1: 9.02%
NS(=O)(=O)c1cc(C(=O)O)cc(N2CCCC2)c1Oc1ccccc1: 6.19%
C[C@@H]1CN(c2c(F)c(N)c3c(=O)c(C(=O)O)cn(C4CC4)c3c2F)C[C@H](C)N1: 3.38%
NCCc1ccc(O)c(O)c1: 7.67%

A few entries again (set 3):
CC1=C(C(=O)O)N2C(=O)[C@@H](NC(=O)[C@H](N)c3ccc(O)cc3)[C@H]2SC1: 88.7%
CNC(=O)c1ccccc1Sc1ccc2c(/C=C/c3ccccn3)n[nH]c2c1: 67.7%
CC(C)(Oc1ccc(C(=O)c2ccc(Cl)cc2)cc1)C(=O)O: 102%
